Measurements of several laboratories.
“And” joins repeats or separate records; there may be more than shown. ± gives the spread as reported.
USP33 ZnF-UBD domain: Ubiquitin carboxyl-terminal hydrolase 33, ZnF-UBD domain (USP33, Homo sapiens, UniProt Q8TEY7)
Chain of UniProt Q8TEY7 (whole entry, looked up): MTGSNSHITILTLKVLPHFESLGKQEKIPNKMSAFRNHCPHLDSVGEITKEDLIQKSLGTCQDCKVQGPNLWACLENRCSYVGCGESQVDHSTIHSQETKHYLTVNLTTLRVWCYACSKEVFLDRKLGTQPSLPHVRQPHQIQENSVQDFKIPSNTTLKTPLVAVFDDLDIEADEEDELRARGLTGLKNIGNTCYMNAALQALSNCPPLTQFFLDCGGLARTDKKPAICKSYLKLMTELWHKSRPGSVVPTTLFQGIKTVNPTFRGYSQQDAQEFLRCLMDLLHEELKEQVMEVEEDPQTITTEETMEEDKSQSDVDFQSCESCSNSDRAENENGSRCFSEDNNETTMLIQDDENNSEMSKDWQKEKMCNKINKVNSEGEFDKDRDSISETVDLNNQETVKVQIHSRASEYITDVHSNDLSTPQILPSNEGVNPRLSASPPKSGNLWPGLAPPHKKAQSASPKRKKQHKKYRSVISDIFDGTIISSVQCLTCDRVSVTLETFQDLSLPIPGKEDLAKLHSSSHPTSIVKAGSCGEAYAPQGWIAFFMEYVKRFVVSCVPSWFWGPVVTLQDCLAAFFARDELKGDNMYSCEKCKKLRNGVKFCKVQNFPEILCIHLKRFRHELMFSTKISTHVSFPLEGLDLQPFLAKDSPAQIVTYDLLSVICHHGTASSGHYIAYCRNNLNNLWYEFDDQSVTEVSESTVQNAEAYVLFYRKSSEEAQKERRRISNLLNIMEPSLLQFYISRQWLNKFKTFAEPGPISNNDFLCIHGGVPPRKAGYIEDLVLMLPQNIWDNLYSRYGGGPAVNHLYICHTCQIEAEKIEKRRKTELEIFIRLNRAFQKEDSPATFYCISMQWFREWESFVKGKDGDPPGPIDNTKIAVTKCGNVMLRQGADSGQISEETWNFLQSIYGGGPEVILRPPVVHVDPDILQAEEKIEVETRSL
IDE: Insulin-degrading enzyme (IDE, Homo sapiens, UniProt P14735)
Cereblon/Ikaros: Cereblon/Ikaros (Homo sapiens, UniProt Q13422+Q96SW2)
Chain of UniProt Q13422 (whole entry, looked up): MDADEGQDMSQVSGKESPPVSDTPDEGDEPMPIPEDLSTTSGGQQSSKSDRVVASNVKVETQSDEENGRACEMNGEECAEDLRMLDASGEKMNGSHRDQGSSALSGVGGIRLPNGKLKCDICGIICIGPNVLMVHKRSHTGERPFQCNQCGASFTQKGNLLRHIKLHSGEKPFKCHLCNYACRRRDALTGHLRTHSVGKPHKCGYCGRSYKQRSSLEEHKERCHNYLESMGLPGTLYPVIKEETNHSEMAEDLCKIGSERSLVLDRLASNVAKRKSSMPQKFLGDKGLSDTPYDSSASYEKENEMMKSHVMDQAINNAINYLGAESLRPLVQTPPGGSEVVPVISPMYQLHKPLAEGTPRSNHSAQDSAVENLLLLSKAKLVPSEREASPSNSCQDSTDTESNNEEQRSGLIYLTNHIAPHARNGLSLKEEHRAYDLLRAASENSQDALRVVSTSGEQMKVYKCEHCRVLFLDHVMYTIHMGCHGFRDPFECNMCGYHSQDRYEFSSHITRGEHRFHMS
Chain of UniProt Q96SW2 (whole entry, looked up): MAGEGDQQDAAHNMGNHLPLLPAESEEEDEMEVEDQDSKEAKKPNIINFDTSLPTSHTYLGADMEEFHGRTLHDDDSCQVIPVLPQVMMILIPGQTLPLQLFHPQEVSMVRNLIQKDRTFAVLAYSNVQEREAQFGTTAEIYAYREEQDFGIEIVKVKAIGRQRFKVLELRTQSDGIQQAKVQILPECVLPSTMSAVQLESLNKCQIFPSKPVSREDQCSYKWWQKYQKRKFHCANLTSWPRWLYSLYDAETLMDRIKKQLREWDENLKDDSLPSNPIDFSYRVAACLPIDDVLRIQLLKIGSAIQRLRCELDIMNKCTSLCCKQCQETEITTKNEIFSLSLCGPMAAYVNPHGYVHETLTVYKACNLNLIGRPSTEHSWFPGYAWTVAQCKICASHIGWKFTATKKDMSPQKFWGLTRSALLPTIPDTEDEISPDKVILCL
Chain of UniProt Q13336 (whole entry, looked up): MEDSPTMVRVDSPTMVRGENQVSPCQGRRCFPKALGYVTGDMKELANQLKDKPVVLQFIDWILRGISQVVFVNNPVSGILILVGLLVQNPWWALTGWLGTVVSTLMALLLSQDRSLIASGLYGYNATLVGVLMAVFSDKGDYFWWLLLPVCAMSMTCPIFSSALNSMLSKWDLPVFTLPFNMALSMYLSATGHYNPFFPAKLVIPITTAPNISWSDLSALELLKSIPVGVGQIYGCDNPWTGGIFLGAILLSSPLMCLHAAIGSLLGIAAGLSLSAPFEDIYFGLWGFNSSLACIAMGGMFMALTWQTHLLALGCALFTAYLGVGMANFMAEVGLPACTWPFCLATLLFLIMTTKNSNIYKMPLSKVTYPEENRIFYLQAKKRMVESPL
Chain of UniProt P05181 (whole entry, looked up): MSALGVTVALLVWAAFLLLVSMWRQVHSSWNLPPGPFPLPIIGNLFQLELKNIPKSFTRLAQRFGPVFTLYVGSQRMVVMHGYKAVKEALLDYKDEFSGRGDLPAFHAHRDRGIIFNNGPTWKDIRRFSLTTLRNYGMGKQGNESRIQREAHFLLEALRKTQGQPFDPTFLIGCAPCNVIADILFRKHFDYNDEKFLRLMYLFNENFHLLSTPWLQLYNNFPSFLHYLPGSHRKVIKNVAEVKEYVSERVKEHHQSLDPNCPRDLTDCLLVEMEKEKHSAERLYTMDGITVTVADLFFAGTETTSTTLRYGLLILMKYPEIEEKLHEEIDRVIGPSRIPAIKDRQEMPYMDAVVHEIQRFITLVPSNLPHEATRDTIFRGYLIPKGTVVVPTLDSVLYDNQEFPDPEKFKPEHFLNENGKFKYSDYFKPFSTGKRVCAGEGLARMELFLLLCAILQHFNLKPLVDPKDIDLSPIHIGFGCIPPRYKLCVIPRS
Chain of UniProt Q9NZQ7 (whole entry, looked up): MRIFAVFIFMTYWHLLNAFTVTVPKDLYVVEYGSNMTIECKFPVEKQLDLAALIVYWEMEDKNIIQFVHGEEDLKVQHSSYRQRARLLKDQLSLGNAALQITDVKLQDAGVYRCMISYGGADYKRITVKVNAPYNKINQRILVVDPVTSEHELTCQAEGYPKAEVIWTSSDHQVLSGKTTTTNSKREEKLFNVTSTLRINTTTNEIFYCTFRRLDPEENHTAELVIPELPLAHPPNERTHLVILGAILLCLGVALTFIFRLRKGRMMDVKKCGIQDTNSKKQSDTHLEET

SMILES	target	test	system	setting	endpoint	result
O=C(O)Cc1cccc2cccnc12	USP33 ZnF-UBD domain	–	–	–	Kd	> 1000 µM
NC(=S)Nc1ccc(Cl)c(Cl)c1	Urea transporter 1 (Homo sapiens, UniProt Q13336)	urea transport inhibition	–	with: thiourea	Ki	10 µM and ~30 µM
Cc1ccccc1-c1ccc([C@H]2[C@H]3CN(C(=O)NC4CCCC4)CCCCN3[C@H]2CO)cc1	IDE	enzyme activity, inhibitor, fluorogenic kinetic	–	with: Mca-RPPGFSAFK(Dnp)-OH substrate	EC50	5.6 µM
CCC(C)(NCCc1cc(C(F)(F)F)cc(C(F)(F)F)c1)c1cccc(NC2=CC(=O)N(C3CCC(=O)NC3=O)C2=O)c1 (centres unmarked)	Cereblon/Ikaros	degrader, HiBiT luminescence, measured: endogenous HiBiT-tagged protein	–	–	DC50	0.69 ± 0.31 µM
Nc1nc(CC(=O)O)cs1	USP33 ZnF-UBD domain	–	–	–	Kd	> 1000 µM
NS(=O)(=O)c1nnc(NC(=O)CCCCC2CCCCC2)s1	Enterococcus faecium γ-carbonic anhydrase	CO2 hydration, inhibitor, stopped-flow kinetics	–	–	Ki	0.587 µM
C=CCN1[C@H](CO)[C@@H](c2ccc(-c3cccc(C)c3C)cc2)[C@@H]1CNS(=O)(=O)c1ccccc1C(F)(F)F	IDE	enzyme activity, inhibitor, fluorogenic peptide cleavage	–	partial inhibition curves, with: Mca-RPPGFSAFK(Dnp)-OH	EC50	0.1 µM
O=C(O)CNc1ncccn1	USP33 ZnF-UBD domain	–	–	–	Kd	> 1000 µM
CCC(C)(NCCc1cccc(Cl)c1)c1cccc(NC2=CC(=O)N(C3CCC(=O)NC3=O)C2=O)c1 (centres unmarked)	Cereblon/Ikaros	degrader, HiBiT luminescence, measured: endogenous HiBiT-tagged protein	–	–	DC50	0.09 ± 0.016 µM
O=C(O)CCc1cnn(-c2ccccc2)c1	USP33 ZnF-UBD domain	–	–	–	Kd	> 1000 µM
NS(=O)(=O)c1nnc(NC(=O)C2CC23CCCCC3)s1 (centres unmarked)	Enterococcus faecium γ-carbonic anhydrase	CO2 hydration, inhibitor, stopped-flow kinetics	–	–	Ki	0.222 µM
O=C1CCC(N2Cc3cc(NC(=O)c4ccccc4)ccc3C2=O)C(=O)N1 (centres unmarked)	Cereblon/Ikaros	degrader, live-cell HiBiT kinetic	Jurkat Ikaros-HiBiT LgBiT	–	DC50	> 10 µM
O=C(O)CCc1cnccn1	USP33 ZnF-UBD domain	–	–	–	Kd	> 1000 µM
Cc1ccccc1S(=O)(=O)N1C/C=C\CN2[C@H](CO)[C@@H](c3ccc(-c4cccc(Cl)c4C)cc3)[C@@H]2C1	IDE	enzyme activity, inhibitor, fluorescence kinetic	–	with: Mca-RPPGFSAFK(Dnp)-OH substrate	EC50	0.035 µM
O=C(O)Cc1nc2ccccc2[nH]1	USP33 ZnF-UBD domain	–	–	–	Kd	> 1000 µM
COc1ccccc1-c1ccc([C@H]2[C@H](C#N)N[C@@H]2CO)cc1	IDE	enzyme activity, inhibitor, fluorogenic kinetic	–	with: Mca-RPPGFSAFK(Dnp)-OH substrate	EC50	6.3 µM
NS(=O)(=O)c1nnc(NC(=O)CN2CCC3(CC2)CC3)s1	Enterococcus faecium γ-carbonic anhydrase	CO2 hydration, inhibitor, stopped-flow kinetics	–	–	Ki	0.099 µM
O=C1CCC(N2C(=O)C=C(Nc3cccc(C4(NCCc5ccc(C(F)(F)F)c(Cl)c5)CCC4)c3)C2=O)C(=O)N1 (centres unmarked)	Cereblon/Ikaros	degrader, HiBiT	Jurkat	5 h	DC50	0.02 ± 0.001 µM

SMILES	target	test	system	setting	endpoint	result
COc1nc(-c2cccc(-c3ccccc3)c2C)ccc1CNCCNC(=O)CCCCCCCCCCC(=O)N1CCN(CCNC(=O)c2cc3c(=O)n4cccc(C)c4nc3n(CCc3cccs3)c2=N)CC1	CD274 (Homo sapiens, UniProt Q9NZQ7)	degrader, western blot	HL-60	–	DC50	~1 µM
NS(=O)(=O)c1nnc(NC(=O)CC2CCC(F)(F)CC2)s1	Enterococcus faecium γ-carbonic anhydrase	CO2 hydration, inhibitor, stopped-flow kinetics	–	–	Ki	0.0648 µM
CCC(=O)N1[C@H](CO)[C@H](c2ccc(-c3ccccc3OC)cc2)[C@H]1CNC(C)=O	IDE	enzyme activity, inhibitor, fluorogenic kinetic	–	with: Mca-RPPGFSAFK(Dnp)-OH substrate	EC50	10.7 µM
CC(C)(C)OCC(=O)Nc1nnc(S(N)(=O)=O)s1	Enterococcus faecium γ-carbonic anhydrase	CO2 hydration, inhibitor, stopped-flow kinetics	–	–	Ki	0.223 µM
O=C1CCC(N2Cc3cc(Nc4noc5ccccc45)ccc3C2=O)C(=O)N1 (centres unmarked)	Cereblon/Ikaros	degrader, live-cell HiBiT kinetic	Jurkat Ikaros-HiBiT LgBiT	–	DC50	> 10 µM
CC1=C(Nc2cccc(C3(NCCc4ccc(C(F)(F)F)c(Cl)c4)CCC3)c2)C(=O)N(C2CCC(=O)NC2=O)C1=O (centres unmarked)	Cereblon/Ikaros	degrader, HiBiT luminescence, measured: endogenous HiBiT-tagged protein	–	–	DC50	26 ± 17 µM
NS(=O)(=O)c1nnc(NC(=O)C2CCC3(CCCC3)CC2)s1	Enterococcus faecium γ-carbonic anhydrase	CO2 hydration, inhibitor, stopped-flow kinetics	–	–	Ki	0.297 µM
O=C(O)CCn1sc2ccccc2c1=O	USP33 ZnF-UBD domain	–	–	–	Kd	> 1000 µM
Cc1cccc(-c2ccc([C@H]3[C@H](CO)N4C(=O)CN(C(=O)NC5CCCCC5)C[C@@H]34)cc2)c1	IDE	enzyme activity, inhibitor, fluorogenic kinetic	–	with: Mca-RPPGFSAFK(Dnp)-OH substrate	EC50	3.2 µM
CC1(CC(=O)Nc2nnc(S(N)(=O)=O)s2)CCCCC1	Enterococcus faecium γ-carbonic anhydrase	CO2 hydration, inhibitor, stopped-flow kinetics	–	–	Ki	0.398 µM
Cc1ccc(NC2=CC(=O)N(C3CCC(=O)NC3=O)C2=O)cc1C(C)(C)NCCc1ccc(C(F)(F)F)c(Cl)c1 (centres unmarked)	Cereblon/Ikaros	degrader, HiBiT luminescence, measured: endogenous HiBiT-tagged protein	–	–	DC50	0.93 ± 0.021 µM
Cc1cccc(-c2ccc([C@H]3[C@@H](CO)N4CCCCN(C(=O)c5ccncc5)C[C@H]34)cc2)c1	IDE	enzyme activity, inhibitor, fluorogenic kinetic	–	with: Mca-RPPGFSAFK(Dnp)-OH substrate	EC50	3 µM
CCC(C)(NCCc1cccc(C(F)(F)F)c1Cl)c1cccc(NC2=CC(=O)N(C3CCC(=O)NC3=O)C2=O)c1 (centres unmarked)	Cereblon/Ikaros	degrader, HiBiT luminescence, measured: endogenous HiBiT-tagged protein	–	–	DC50	0.06 ± 0.008 µM
Cc1cccc(-c2ccc([C@@H]3[C@@H](CO)N4C/C=C\CN(S(=O)(=O)c5cnc6n5CCCCC6)C[C@@H]34)cc2)c1C	IDE	enzyme activity, inhibitor, fluorescence kinetic	–	with: Mca-RPPGFSAFK(Dnp)-OH substrate	EC50	0.042 µM
O=C(O)Cc1cccnc1	USP33 ZnF-UBD domain	–	–	–	Kd	115 µM
NS(=O)(=O)c1cnc(NC(=O)CC2CCCCC2)s1	Enterococcus faecium γ-carbonic anhydrase	CO2 hydration, inhibitor, stopped-flow kinetics	–	–	Ki	0.717 µM
CCc1oc2ccccc2c1C(=O)c1ccc(O)cc1	Cytochrome P450 2E1 (CYP2E1, Homo sapiens, UniProt P05181)	p-nitrophenol hydroxylation, nonlinear fit	baculosomes	10 min	Ki	0.0048 µM

Excerpt of the above:
SMILES	target	test	system	setting	endpoint	result
O=C(O)CCc1cnn(-c2ccccc2)c1	USP33 ZnF-UBD domain	–	–	–	Kd	> 1000 µM
NS(=O)(=O)c1nnc(NC(=O)C2CC23CCCCC3)s1 (centres unmarked)	Enterococcus faecium γ-carbonic anhydrase	CO2 hydration, inhibitor, stopped-flow kinetics	–	–	Ki	0.222 µM
O=C1CCC(N2Cc3cc(NC(=O)c4ccccc4)ccc3C2=O)C(=O)N1 (centres unmarked)	Cereblon/Ikaros	degrader, live-cell HiBiT kinetic	Jurkat Ikaros-HiBiT LgBiT	–	DC50	> 10 µM
